{"data": "Measurements from different studies", "note": "Numbered parts are unrelated; each lists some results of a single study."}
{"data": "Set 1", "target": "Interferon regulatory factor 5, full length, phosphomimetic (IRF5, Homo sapiens, UniProt Q13568-2, residues 1-514, K96S/S451D/S453D/S456D/S462D)", "method": "protein-binding microarray", "form": "double-stranded DNA, one strand shown", "matrix": "in vitro", "concentration": "250 nM", "notes": "60-bp whole probe", "with": "salmon DNA 0.4 mg/ml", "reference": "random background probes", "direction": "higher = stronger binding", "constant ends, left off below": "GCCTAGCAC … GTCTTGATTCGCTTGACGCTGCTG"}
{"Sequence": "ACTAATTTTCAATTCCTGAAGTGCTAG", "log fluorescence [z-score]": 1.6}
{"Sequence": "GACGCTTTCCTTCTCCTGACGTGCTAG", "log fluorescence [z-score]": 1.03}
{"Sequence": "GACGTTTTCGGTCTCGGGACGTGCTAG", "log fluorescence [z-score]": 8.32}
{"Sequence": "GACGGTCACCTTCTCCTGACGTGCTAG", "log fluorescence [z-score]": -0.218}
{"Sequence": "GACGAACTGGGGACTGGAGAAGTGCTA", "log fluorescence [z-score]": -0.352}
{"Sequence": "GACGGACTGGGGAATCGGGACGTGCTA", "log fluorescence [z-score]": -0.513}
{"data": "Set 2", "target": "RING finger protein unkempt homolog, zinc fingers 1-6, SBP tag (UNK, Homo sapiens, UniProt Q9C0B0, residues 30-357)", "method": "RNA Bind-n-Seq", "form": "RNA", "matrix": "in vitro", "concentration": "100 nM", "notes": "RNA with constant flanks, vertebrate orthologous sites, ends assumed", "reference": "input RNA pool", "direction": "higher = stronger binding", "constant ends, left off below": "GGGAGUUCUACAGUCCGACGAUC … CAACAGAGGAUUGAGCAUCA", "sequence of UniProt Q9C0B0 (30-357, looked up)": "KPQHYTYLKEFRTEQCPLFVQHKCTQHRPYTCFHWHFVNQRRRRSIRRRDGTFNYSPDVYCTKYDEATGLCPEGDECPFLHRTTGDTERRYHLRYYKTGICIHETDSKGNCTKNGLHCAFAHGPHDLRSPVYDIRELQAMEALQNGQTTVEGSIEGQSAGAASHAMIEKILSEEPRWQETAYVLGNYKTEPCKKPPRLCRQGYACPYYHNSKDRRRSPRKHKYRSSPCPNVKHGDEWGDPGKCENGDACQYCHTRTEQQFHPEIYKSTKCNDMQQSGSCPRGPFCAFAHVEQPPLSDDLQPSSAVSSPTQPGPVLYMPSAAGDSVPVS"}
{"Sequence": "AACUCUUACAGUCUUAGAUGUUAUUAAAAAAUAUAAAUAUAUCUGAAUUGUAAGAGUUGUUAGCACAGGUGUUUUGUUUUUGUGGUUUUUUUUUUUUUGAAGCACUUGUUUUUGGGUACA", "bound/input enrichment": "0.655 ratio"}
{"Sequence": "GCAAUGAAAAAGCAGCCCUUCUCCCAGCCCCCUUUUCACUAGGAGAUACAAACGUUACGAUAGAAGAGCAAUUAAACUCAAUAAAUUUAUCUUUUCAGGAUGAUCCAGACUCCUGUACCA", "bound/input enrichment": "1.36 ratio"}
{"Sequence": "GUGAGGGUCUACUGACCACUCGCUGUUACGUCUGGUAUCUGUAAACGCUCUUUUUGUUCUUAGUCUUUUUCUUGUAUAAUUGAUACUCUUUAAAAUCGUUAAUGUAUAACAGGGCUUAUG", "bound/input enrichment": "3.4 ratio"}
{"Sequence": "UAUAAGAACUCUUGCAGUCUUAGAUGUUUUAAAAAUAUAUAUCUGAAUUGUAAGAGUUGUUAGCACAAGUUUUUUUUUUUUUUUUUUUAAGCACUUGUUUUGGGUACAAGGCAUUUCUGA", "bound/input enrichment": "0.889 ratio"}
{"Sequence": "UAUGUCCUUGAUUCACAUUCCUCUCUGUUUGUGUUUAGAGAAAGGAAAAAAAAAGACAUUUUAGCCUUUUUUAAAGUUAUCGAUAUAAUUUCUUAUUACUUGGUUGCAUGAAGUUGCCCU", "bound/input enrichment": "0.594 ratio"}
{"Sequence": "GCACAUGCCGCUAUCACCAAAAGCAAAUUGCCAUUUUUCAAAUUUCAUCCAGAGCCGUUUUAGUGUUUCCUAUUCCCUGCCCUUCCCAUUACUUUCAAUGAUGAACGUUCUCCUCUGACA", "bound/input enrichment": "2.7 ratio"}
{"data": "Set 3", "target": "Protein max, full length (MAX, Homo sapiens, UniProt P61244-2, residues 1-151)", "method": "protein-binding microarray", "form": "double-stranded DNA, one strand shown", "matrix": "in vitro", "concentration": "not given", "notes": "k-mer, scored over probes, only values ≥0.25", "direction": "higher = stronger binding"}
{"Sequence": "ACGCCGGA", "E-score": 0.278}
{"Sequence": "CATGGTAA", "E-score": 0.311}
{"Sequence": "CGTGATAA", "E-score": 0.355}
{"Sequence": "ACACATGT", "E-score": 0.467}
{"Sequence": "CCCGTGAC", "E-score": 0.325}
{"data": "Other studies, line by line"}
{"Molecule": "PhoQ, residues 284 288 289 292 302 303 ASSHFY", "target": "PhoP, residues 12 14 15 18 19 NHFRA (Escherichia coli, UniProt P23836)", "assay": "Sort-seq, item: YFP reporter", "test system": "E. coli", "setting": "PhoQ-PhoP variant library, with: 10 µM Mg2+", "scale": "reference: high Mg2+ state, higher = stronger signaling", "quantity": "fold induction", "value": 1.93}
{"note": "Excerpt of the above (set 2):"}
{"Sequence": "GCAAUGAAAAAGCAGCCCUUCUCCCAGCCCCCUUUUCACUAGGAGAUACAAACGUUACGAUAGAAGAGCAAUUAAACUCAAUAAAUUUAUCUUUUCAGGAUGAUCCAGACUCCUGUACCA", "bound/input enrichment": "1.36 ratio"}
{"Sequence": "GCACAUGCCGCUAUCACCAAAAGCAAAUUGCCAUUUUUCAAAUUUCAUCCAGAGCCGUUUUAGUGUUUCCUAUUCCCUGCCCUUCCCAUUACUUUCAAUGAUGAACGUUCUCCUCUGACA", "bound/input enrichment": "2.7 ratio"}
